Measured values of several laboratories.
Every numbered part comes from another study and shows a few of its results, in no order. Positions count from the first letter of the parent shown.

Series 1
Target: CCNB1, cyclin fold, Cln2 fusion (human)
Method: yeast growth competition, sequencing
Sample: yeast
Notes: weak parent motif
Reference: not given
Reading: higher = stronger binding
Parent: RB1 docking peptide (human); PKPLKKLRFDIEG
`PKPLKWLRFDIEG [K6W]` — result for “normalised enrichment score”: 0.375.
`PKPLKKLRFDIEA [G13A]`: “normalised enrichment score” 0.697.
For `PCPLKKLRFDIEG [K2C]`, “normalised enrichment score” read 0.555.
Under “normalised enrichment score”, `PRPLKKLRFDIEG [K2R]` is recorded as 1.14.
For `FKPLKKLRFDIEG [P1F]`, “normalised enrichment score” read 0.65.
`PKPLKMLRFDIEG [K6M]` — result for “normalised enrichment score”: 0.43.
Under “normalised enrichment score”, `PKPLKILRFDIEG [K6I]` is recorded as 0.401.
`PKPLKKLRNDIEG [F9N]` — result for “normalised enrichment score”: 0.734.
For `PKPLKRLRFDIEG [K6R]`, “normalised enrichment score” read -0.031.

Series 2
Target: RING finger protein unkempt homolog, zinc fingers 1-6, GST-SBP tag (UNK, Homo sapiens, UniProt Q9C0B0, residues 30-357)
Chain of UniProt Q9C0B0 (30-357, looked up): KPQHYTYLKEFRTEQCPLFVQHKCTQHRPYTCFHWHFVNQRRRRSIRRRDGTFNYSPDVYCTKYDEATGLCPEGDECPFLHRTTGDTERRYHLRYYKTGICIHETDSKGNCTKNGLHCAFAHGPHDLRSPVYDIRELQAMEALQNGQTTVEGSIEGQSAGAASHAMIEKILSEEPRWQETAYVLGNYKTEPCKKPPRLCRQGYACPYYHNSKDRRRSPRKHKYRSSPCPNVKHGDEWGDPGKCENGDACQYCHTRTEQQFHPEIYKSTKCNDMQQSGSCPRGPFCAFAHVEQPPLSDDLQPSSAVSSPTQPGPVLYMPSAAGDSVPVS
Method: RNA Bind-n-Seq
Molecule type: RNA
Sample: in vitro
Tested at: not given
Notes: RNA with constant flanks, human and mouse sites, ends assumed
Reference: input RNA pool
Reading: higher = stronger binding
Constant ends, left off below: GGGAGUUCUACAGUCCGACGAUC … CAACAGAGGAUUGAGCAUCA
`UAGAUAAUUCUUUUUAUUUUUUAUUUUUCCUUUCCCUCAAUCCUUUUUUAUUUUUAAAAAUAGUUCUUUUGUAAUGUGGUGUUCAAAAUGAAAAUUGAAUACUGGCACUCCAUCUCUUAG` has a bound/input enrichment of 188 ratio.
With `GGUUCAAGUGAUUUAUUAUGUGACUUGAAUACAAGUUCUUAUGACACUUCUGCUCUUUGUAAUGGCUUUCCUUUGGAAAAUAUAUGUACCCAGGUCAUAGACCAGAAUCAGAAUUUACAU` the bound/input enrichment was 0.113 ratio.
`ACGAACGAGGAGGUAUCGGGAGACCUGGAUAAUCUAGAUGCCAUUCUUGGAGAUUUGACCAGUUCUGACUUCUACAACAAUCCUACAAAUGGCGGUCACCCAGGGGCCAAACAGCAGAUG` has a bound/input enrichment of 0.203 ratio.
The bound/input enrichment of `AAACUCUCUAGCAAAACGACUGCUAAGUUAUCCACUAGUGCUAAAAGAAUUCAGAAGGAGCUAGCAGAGAUAACCCUUGAUCCUCCUCCUAACUGCAGUGCUGGGCCUAAAGGAGAUAAC` is reported as 0.396 ratio.
For `GGAGACUCAACAGCAAGAAUAUGGAAUCUUAGUGAGAACAGCACCAGUGGCUCUACACAGUUAGUACUUAGACAUUGUAUACGAGAAGGAGGGCAAGAUGUUCCAAGCAACAAGGAUGUC`, the bound/input enrichment was 2 ratio.
For `GAGGAAGUUCAUGAUCUCGAGAGGAAGUAUGCUGUUCUCUAUCAGCCUUUAUUUGAUAAGCGAUUUGAGAUCAUUAAUGCAAUCUAUGAACCUACAGAAGAAGAAUGCGAGUGGAAACCA`, the bound/input enrichment was 0.14 ratio.
`AUAUAUCUCAAGCAAACCAAAAUAUGAUGCUCUUCUGCUUUGUUUUAUUCUAAAUUGUUGUAUCAUAUCUUUCUGAAACCAUUCUGAAUUUAGUUGAAAUUAUCAAUAUUUAUGCUUUUA` gave a bound/input enrichment of 1.35 ratio.
The bound/input enrichment of `UAGGCCUGUGUGUGUGUGUGAGUGUGUGUGUAUAUGGGUGUGGGUGUGUUUGUGUGUGGUGGUUGUGGGGGGGGUGUUGGAGGUUCUAUUUCAUUUAAAAAUGUAUUCAUUUCCCUGGCC` is reported as 7.96 ratio.

Other studies, line by line
`GNL3 (Homo sapiens, UniProt Q9BVP2)`: cross-linked residues “K46 to K291” (CCDC86 (Homo sapiens, UniProt Q9H6F5); cross-linking MS; cell fractions; with: DSSO).
With `PhoQ, residues 284 288 289 292 302 303 GASLAW` the fold induction was 2.97 (PhoP, residues 12 14 15 18 19 AQALL (Escherichia coli, UniProt P23836); Sort-seq, refers to: YFP reporter; E. coli; PhoQ-PhoP variant library, with: 10 µM Mg2+; reference: high Mg2+ state, higher = stronger signaling).
`IGF2BP3 (Homo sapiens, UniProt O00425)` — result for interaction screen: “cross-linked” (IGF2BP1 (Homo sapiens, UniProt Q9NZI8); cross-linking MS; hits only).

For quick reference, copied from above (series 1):
`PKPLKKLRNDIEG [F9N]` — result for “normalised enrichment score”: 0.734.
`PKPLKKLRFDIEA [G13A]`: “normalised enrichment score” 0.697.
Under “normalised enrichment score”, `PRPLKKLRFDIEG [K2R]` is recorded as 1.14.
